Assay results collected from several papers.
Every numbered part comes from another study and shows a few of its results, in no order. Changes are numbered by the printed parent chain.

Study 1 — target: CCNB3, cyclin fold, Cln2 fusion (human); technique: yeast growth competition, sequencing; medium: yeast; setting: weak parent motif; baseline: not given; reading: higher = stronger binding
Starting sequence: MASTL docking peptide (human); PMIAKNLMCELDE
`K5M` — result for “normalised enrichment score”: 0.0375.
For `L7M`, “normalised enrichment score” read -0.229.
Under “normalised enrichment score”, `E10S` is recorded as -0.314.
For `D12E`, “normalised enrichment score” read 0.114.
Under “normalised enrichment score”, `E10P` is recorded as 0.00344.
Under “normalised enrichment score”, `I3F` is recorded as -0.0675.
`C9G` — result for “normalised enrichment score”: -0.0179.

Study 2 — technique: competition protein-binding microarray; form: double-stranded DNA, one strand shown; medium: in vitro; tested at: 2 µM; with: Cbf1 competitor, 0.05 µM; reading: higher = stronger binding
Target: Phosphate system positive regulatory protein PHO4, full length, GST-tagged (PHO4, Saccharomyces cerevisiae, UniProt P07270, residues 1-312)
Setting: whole 60-bp probe, lowest competitor level
Target sequence (chain): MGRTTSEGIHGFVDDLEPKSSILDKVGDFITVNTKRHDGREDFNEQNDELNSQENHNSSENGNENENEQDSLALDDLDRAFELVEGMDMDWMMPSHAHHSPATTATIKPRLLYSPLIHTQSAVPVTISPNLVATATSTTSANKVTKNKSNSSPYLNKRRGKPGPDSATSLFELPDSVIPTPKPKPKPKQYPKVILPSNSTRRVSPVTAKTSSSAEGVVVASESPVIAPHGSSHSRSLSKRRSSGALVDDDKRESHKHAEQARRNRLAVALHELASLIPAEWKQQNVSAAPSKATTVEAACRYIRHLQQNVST
The fluorescence intensity of `CGTCCTAGTGATTGTCACTGGACTTCCATGAGGAAGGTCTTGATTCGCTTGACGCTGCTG` is reported as 4310 a.u.
For `CTAACGAAGGTTTTTCACGTGATGTACAAGCCAAGTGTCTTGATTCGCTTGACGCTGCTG`, the fluorescence intensity was 12700 a.u.
With `TCTTTGTCTGCTCGAGACGTGGGTAGTTAGCAAGTCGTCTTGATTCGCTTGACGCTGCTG` the fluorescence intensity was 7380 a.u.
`AGTCTCTTCGGGAAGTACATGACAGGGTGGTATATAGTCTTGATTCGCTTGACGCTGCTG` has a fluorescence intensity of 4760 a.u.
With `CGGGGTTAAGTTTAACACGTGTTTTGCTTGCAGCAGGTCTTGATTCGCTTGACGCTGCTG` the fluorescence intensity was 15100 a.u.
The fluorescence intensity of `CCCGTTAGAATCCATCACGTAACCTGGTGGCGCTTTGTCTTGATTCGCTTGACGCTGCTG` is reported as 4160 a.u.
`CCGCCGCTGCTTTTGCACGTGAGTCCCGCGGATTTTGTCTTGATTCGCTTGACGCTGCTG` has a fluorescence intensity of 15100 a.u.
For `CATGCCGAGAAGTTACTCGTGCAAATCACTACGATAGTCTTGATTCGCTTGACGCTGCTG`, the fluorescence intensity was 7130 a.u.
With `GTCTTGTCTCATTGTACGGTGGGTGTCCCCACTTCAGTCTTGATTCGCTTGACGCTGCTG` the fluorescence intensity was 4870 a.u.
`CATACCCAACCTTGCCACGTGTTTTAAGATATTTGTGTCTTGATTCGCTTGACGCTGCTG` gave a fluorescence intensity of 18900 a.u.
`GTCTTGTCTCATTAACACGTGTTTTTCCCCACTTCAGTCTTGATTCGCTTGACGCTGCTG` has a fluorescence intensity of 16700 a.u.
`CATACCCAACCTTGGCATGTGGGTGAAGATATTTGTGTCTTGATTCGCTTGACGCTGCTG` has a fluorescence intensity of 13000 a.u.

Study 3 — technique: protein-binding microarray; form: double-stranded DNA, one strand shown; medium: in vitro; tested at: 2540 nM top; setting: 60-bp whole probe; with: salmon DNA 0.4 mg/ml; baseline: random background probes; reading: higher = stronger binding
Target: Interferon regulatory factor 3, full length, phosphomimetic (IRF3, Homo sapiens, UniProt Q14653, residues 1-427, S386D/S396D/S398D/S402D/T404D/S405D)
Sequence of UniProt Q14653 (whole entry, unmodified, looked up): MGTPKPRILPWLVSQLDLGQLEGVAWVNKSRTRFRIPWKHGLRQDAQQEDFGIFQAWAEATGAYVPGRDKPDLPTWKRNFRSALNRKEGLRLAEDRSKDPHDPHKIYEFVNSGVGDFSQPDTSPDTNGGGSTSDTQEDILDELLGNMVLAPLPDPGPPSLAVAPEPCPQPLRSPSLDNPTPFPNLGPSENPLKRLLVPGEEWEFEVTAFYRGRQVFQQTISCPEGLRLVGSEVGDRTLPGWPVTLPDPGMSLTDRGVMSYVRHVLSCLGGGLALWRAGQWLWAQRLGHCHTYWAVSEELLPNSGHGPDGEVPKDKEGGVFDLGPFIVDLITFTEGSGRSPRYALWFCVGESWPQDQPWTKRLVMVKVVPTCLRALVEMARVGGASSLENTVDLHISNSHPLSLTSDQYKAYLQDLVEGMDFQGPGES
Under “fitted relative affinity”, `GCCTAGCACTCATGTCTCCCCCATCTTACTGTGCTAGTCTTGATTCGCTTGACGCTGCTG` is recorded as 0.9 z-score.
Under “fitted relative affinity”, `GCCTAGCACTTAGGTTCCGGTTACGGTTAGTGCTAGGTCTTGATTCGCTTGACGCTGCTG` is recorded as 3.69 z-score.
For `GCCTAGCACCTTTCTGTCAGTTTTGAGCTGTGCTAGGTCTTGATTCGCTTGACGCTGCTG`, “fitted relative affinity” read 5.01 z-score.
For `GCCTAGCACTCACATTTTCATTTTGTACTGTGCTAGGTCTTGATTCGCTTGACGCTGCTG`, “fitted relative affinity” read 2.49 z-score.

Mixed results
With `PhoQ, residues 284 288 289 292 302 303 TASMAF` the fold induction was 3.38 (PhoP, residues 12 14 15 18 19 NFCKL (Escherichia coli, UniProt P23836); Sort-seq, measured: YFP reporter; E. coli; PhoQ-PhoP variant library, with: 10 µM Mg2+; baseline: high Mg2+ state, higher = stronger signaling).
